Assay results of several laboratories.
Numbered parts are unrelated; each lists some results of a single study. Changes are numbered by the printed parent chain.
Sequence of UniProt P08069 (whole entry, looked up): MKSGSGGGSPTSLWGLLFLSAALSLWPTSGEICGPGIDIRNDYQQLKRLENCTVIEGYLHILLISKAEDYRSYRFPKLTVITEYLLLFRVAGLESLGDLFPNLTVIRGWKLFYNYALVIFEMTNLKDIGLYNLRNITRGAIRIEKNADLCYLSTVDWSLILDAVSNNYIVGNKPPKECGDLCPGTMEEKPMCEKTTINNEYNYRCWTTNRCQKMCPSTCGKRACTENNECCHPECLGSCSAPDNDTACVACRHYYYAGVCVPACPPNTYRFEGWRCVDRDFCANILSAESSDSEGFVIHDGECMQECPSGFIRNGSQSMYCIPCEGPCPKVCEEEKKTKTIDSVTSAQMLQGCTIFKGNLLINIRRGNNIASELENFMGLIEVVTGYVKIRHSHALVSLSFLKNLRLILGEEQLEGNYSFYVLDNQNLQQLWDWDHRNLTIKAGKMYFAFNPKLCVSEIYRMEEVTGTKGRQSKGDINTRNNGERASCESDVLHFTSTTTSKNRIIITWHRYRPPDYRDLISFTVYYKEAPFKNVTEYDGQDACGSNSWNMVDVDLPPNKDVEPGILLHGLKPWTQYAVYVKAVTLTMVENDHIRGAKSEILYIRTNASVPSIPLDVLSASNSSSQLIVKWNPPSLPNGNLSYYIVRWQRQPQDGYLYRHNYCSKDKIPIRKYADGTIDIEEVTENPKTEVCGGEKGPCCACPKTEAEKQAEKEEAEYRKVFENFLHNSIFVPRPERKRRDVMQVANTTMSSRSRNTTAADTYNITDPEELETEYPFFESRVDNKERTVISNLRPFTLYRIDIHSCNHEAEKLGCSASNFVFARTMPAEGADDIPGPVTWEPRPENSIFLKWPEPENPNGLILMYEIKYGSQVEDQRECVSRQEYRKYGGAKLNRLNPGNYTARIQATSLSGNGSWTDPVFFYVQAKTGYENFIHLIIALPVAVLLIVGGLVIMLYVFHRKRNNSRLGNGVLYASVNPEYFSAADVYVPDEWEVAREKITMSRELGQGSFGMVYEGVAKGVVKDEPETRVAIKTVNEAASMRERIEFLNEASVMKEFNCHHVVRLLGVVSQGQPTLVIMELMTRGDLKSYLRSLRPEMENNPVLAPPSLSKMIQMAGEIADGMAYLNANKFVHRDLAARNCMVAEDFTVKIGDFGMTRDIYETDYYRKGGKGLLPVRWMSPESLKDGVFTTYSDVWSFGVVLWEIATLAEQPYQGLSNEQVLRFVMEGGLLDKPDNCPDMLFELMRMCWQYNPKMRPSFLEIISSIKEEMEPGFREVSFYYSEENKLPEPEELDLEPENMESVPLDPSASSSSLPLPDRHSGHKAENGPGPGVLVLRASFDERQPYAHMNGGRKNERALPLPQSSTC
Sequence of UniProt P48730 (whole entry, looked up): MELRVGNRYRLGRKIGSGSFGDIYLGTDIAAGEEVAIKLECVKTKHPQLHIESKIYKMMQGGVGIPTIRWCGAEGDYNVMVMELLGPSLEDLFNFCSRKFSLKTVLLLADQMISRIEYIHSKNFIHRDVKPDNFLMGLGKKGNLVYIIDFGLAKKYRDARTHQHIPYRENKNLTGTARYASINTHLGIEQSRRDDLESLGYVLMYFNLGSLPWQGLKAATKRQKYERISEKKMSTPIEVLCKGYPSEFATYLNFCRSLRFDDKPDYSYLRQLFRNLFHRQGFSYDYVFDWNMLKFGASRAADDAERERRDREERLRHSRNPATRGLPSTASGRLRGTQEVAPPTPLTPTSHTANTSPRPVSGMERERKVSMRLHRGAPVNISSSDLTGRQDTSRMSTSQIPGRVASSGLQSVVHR
Sequence of UniProt Q9H4B4 (whole entry, looked up): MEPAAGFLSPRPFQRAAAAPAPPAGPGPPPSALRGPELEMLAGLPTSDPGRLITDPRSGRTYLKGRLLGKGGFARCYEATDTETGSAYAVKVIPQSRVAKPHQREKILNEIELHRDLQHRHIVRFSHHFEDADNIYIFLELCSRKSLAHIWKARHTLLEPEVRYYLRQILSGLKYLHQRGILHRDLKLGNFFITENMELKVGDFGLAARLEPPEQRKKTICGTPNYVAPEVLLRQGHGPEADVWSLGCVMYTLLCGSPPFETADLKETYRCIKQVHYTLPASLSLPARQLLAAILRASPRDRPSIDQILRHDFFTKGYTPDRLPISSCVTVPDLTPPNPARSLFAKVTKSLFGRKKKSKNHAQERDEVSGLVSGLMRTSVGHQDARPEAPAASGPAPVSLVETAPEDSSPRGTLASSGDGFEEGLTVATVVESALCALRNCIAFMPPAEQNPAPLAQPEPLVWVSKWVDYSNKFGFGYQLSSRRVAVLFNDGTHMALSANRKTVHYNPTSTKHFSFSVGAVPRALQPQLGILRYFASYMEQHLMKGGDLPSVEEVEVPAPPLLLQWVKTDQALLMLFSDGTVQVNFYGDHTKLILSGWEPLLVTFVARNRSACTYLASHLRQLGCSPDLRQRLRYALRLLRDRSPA
Sequence of UniProt P42336 (whole entry, unmodified, looked up): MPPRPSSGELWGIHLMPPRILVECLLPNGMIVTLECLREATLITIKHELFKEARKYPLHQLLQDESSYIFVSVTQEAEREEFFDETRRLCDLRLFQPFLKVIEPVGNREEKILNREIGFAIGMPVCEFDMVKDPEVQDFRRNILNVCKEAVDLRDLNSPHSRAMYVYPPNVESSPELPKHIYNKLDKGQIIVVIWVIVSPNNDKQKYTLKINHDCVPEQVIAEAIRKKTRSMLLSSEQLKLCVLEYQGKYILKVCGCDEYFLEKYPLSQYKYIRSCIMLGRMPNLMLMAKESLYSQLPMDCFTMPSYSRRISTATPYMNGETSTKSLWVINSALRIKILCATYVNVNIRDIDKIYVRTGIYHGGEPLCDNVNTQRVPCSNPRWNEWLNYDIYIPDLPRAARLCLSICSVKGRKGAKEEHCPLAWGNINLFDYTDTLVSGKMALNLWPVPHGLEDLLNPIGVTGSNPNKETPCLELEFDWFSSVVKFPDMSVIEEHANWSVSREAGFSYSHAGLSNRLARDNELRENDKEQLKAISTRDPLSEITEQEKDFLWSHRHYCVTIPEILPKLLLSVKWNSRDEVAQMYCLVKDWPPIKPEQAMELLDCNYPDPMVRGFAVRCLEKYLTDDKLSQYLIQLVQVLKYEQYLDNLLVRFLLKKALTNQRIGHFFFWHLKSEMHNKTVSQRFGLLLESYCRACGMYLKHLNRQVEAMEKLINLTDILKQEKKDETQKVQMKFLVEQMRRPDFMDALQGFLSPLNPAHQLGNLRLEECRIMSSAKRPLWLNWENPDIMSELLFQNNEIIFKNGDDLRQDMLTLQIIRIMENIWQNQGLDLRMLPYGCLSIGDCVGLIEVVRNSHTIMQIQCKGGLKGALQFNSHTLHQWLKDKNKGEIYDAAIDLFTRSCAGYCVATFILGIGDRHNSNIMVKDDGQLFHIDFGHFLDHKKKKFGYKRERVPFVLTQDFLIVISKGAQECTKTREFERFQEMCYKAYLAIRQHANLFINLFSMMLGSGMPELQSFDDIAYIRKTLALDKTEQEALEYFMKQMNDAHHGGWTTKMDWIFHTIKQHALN
Sequence of UniProt P49840 (whole entry, looked up): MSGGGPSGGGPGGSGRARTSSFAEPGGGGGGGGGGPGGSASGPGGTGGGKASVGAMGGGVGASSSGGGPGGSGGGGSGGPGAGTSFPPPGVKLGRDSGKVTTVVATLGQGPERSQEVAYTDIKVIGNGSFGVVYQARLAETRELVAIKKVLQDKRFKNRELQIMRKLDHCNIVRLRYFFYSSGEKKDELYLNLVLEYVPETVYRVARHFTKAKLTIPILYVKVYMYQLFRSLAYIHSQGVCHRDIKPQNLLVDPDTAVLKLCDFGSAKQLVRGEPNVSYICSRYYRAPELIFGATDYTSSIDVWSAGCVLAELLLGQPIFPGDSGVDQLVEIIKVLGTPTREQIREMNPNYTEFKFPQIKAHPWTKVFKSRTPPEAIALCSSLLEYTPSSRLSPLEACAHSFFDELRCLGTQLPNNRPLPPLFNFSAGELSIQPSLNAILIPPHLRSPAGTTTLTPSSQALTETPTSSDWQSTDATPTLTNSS
Sequence of UniProt P78368 (whole entry, looked up): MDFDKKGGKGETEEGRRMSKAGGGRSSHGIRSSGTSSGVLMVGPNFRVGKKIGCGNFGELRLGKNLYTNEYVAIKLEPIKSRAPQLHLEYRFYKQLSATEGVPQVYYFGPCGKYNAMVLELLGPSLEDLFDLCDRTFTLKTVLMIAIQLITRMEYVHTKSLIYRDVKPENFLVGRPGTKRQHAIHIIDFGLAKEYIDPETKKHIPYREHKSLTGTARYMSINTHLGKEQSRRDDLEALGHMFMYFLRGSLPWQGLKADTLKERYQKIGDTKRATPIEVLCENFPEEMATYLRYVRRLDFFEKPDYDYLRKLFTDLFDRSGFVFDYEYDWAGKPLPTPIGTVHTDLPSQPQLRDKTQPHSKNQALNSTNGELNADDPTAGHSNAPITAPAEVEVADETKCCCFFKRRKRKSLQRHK

Sample 1 — read-out: cell-free assay; technique: competition with immobilised ligand; concentration: 1 µM
SMILES: O=S(=O)(NC1CCC(c2cc(F)ccc2F)(S(=O)(=O)c2ccc(Cl)cc2)CC1)C(F)(F)F (centres unmarked)
target	remaining binding
PLK3 (Homo sapiens, UniProt Q9H4B4)	97%
PIK3CA (Homo sapiens, UniProt P42336, E545K)	77%
GSK3A (Homo sapiens, UniProt P49840)	87%
IGF1R (Homo sapiens, UniProt P08069)	100%
PRKACA (Homo sapiens, UniProt P17612)	100%
CSNK1G2 (Homo sapiens, UniProt P78368)	99%
LATS1 (Homo sapiens, UniProt O95835)	100%
MAP3K5 (Homo sapiens, UniProt Q99683)	80%
FLT3 (Homo sapiens, UniProt P36888, N841I)	100%
LRRK2 (Homo sapiens, UniProt Q5S007, G2019S)	100%

Sample 2 — target: MAFF, bZIP domain (human); technique: DHFR protein complementation; medium: yeast; relative to: wild-type JUN-FOS pair; direction: higher = stronger binding
Setting: single substitutions, most at no-binding floor
Starting sequence: JUN, bZIP domain (human); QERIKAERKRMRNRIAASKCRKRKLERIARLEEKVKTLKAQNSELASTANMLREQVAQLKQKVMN; partner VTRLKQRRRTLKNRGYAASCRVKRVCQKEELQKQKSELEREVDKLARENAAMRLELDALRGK
Variant	binding fitness [natural log]
A46Q	-1.26
N42G	-1.49
R53F	-1.37
E44R	-1.38
Q55P	-1.53
V35A	-1.55
A57K	-1.55
L59T	-1.65

Single results of other studies
SMILES	tested on	test	system	conditions	how to read	measurement	result
CN([C@@H](Cc1ccc(OS(=O)(=O)c2cccc3cnccc23)cc1)C(=O)N1CCN(c2ccccc2)CC1)S(=O)(=O)c1cccc2cnccc12	CSNK1D (Homo sapiens, UniProt P48730)	enzyme activity, inhibitor		0.5 µM	relative to: control	remaining activity	109%
CCC[C@@H]1NC(=O)CSC[C@@H](C(=O)OCC)N(C)C(=O)[C@H](CC(C)C)NC(=O)[C@H](C)N(C)C(=O)[C@H](CC(C)C)NC(=O)[C@H](C)N(C)C(=O)[C@H]2CCCN2C(=O)[C@H](CC(C)C)NC(=O)CN(C)C1=O			hydrocarbon/water			logD	1.45
CCN(CC)C(=O)c1ccc(Nc2nc(OCC3CCCCC3)c3[nH]cnc3n2)cc1	SIK2 (Homo sapiens, UniProt Q9H0K1)	enzyme activity, inhibitor		0.5 µM	relative to: control	remaining activity	75.3%
CC(C)C[C@@H]1NC(=O)[C@H](Cc2ccccc2)N(C)C(=O)[C@H]2CCCN2C(=O)[C@H](CC(C)C)NC(=O)[C@H](CC(C)C)N(C)C(=O)[C@@H](C)N(C)C1=O			hydrocarbon/water			logD	2.38
O=C1c2ccccc2-[n+]2ccc3c([nH]c4ccccc43)c21	Cyclin-dependent kinase 2, with cyclin E (CDK2, Homo sapiens, UniProt P24941)	enzyme activity, inhibitor		0.5 µM	relative to: control	remaining activity	80.3%
